Published values of several laboratories.
Lines come from different studies, so protocols differ. Values joined by “and” are separate records of one study, mostly repeats; a detail may differ. Numbers after ± are the reported error.

COc1cccc(CNC[C@](O)(COCc2ccccc2)[C@@H]2CC[C@@H](C)C[C@H]2OCc2ccccc2)c1
inhibition (MDA-MB-231; cell growth or viability, MTT; 30 µM, 72 h): 95.1%

CN1CC[C@@H](COc2cnc(C#N)cc2-c2ccn3nc(NC(=O)C4CC4)cc3c2)C1
EC50 (C57BL/6 mouse BMDC; IL-10 release, inducer; 3 h, with: LPS): 0.63 µM

CN(C)c1ccc(-n2cc(COC(=O)[C@@]3(C)C=C(C(=O)OC(C)(C)C)C(=O)CC3)nn2)cc1
luminescence (AP-1 reporter HEK293; AP-1 reporter gene, luciferase reporter; 3 µM, 6 h, with: PMA 6 ng/mL; higher = more transcription): 7240 a.u.

O=C(NCc1cc(F)cc(F)c1)[C@@]1(O)CCN(c2ccc3[nH]ccc3c2)C1=O
maximal inhibition (PDX-derived bladder tumour cells; colony formation, inhibitor, soft agar clonogenic; 8-13 days): 64%

CN1CCCNC(=O)c2cccc(c2)C(=O)NCCCN(C)CCCNc2cccc3c2C(=O)c2cccc(c2C3=O)NCCC1
log2 fold change (SAS; RNA-Seq, item: NME6 mRNA; 1 µM, 6 h; baseline: untreated cells): 0.628

CCOc1cncc(-c2ccc(NC(=O)C3(c4ccnc(NS(=O)(=O)C5CC5)n4)CCOCC3)nc2)n1
IC50 (CHP-212; cell growth or viability, ATP luminescence; 72 h): 10000 nM

COc1cccc(OC)c1-c1cc(C(=O)NC2(C(=O)O)C3CC4CC(C3)CC2C4)nn1-c1ccc(C(=O)N(C)CCCN(C)C(=O)[C@H](CCCCNC(=O)[C@H](CC(C)C)NC(=O)C2OC2C(=O)O)NC(=O)CN2CCN(CC(=O)[O-])CCN(CC(=O)[O-])CCN(CC(=O)[O-])CC2)cc1C(C)C.[177Lu+3] (mixture of isomers)
surface-bound fraction (HT-29; concentration not given, 120 min; baseline: added activity): 3.92 ± 0.46%

CC(C)(C)c1cc(-c2ccc3cc4ccccc4nc3n2)nc(-c2ccc3cc4ccccc4nc3n2)c1.[Cl-].[Cl-].[Ru+2].c1ccc2cc3nc4c5cccnc5c5ncccc5c4nc3cc2c1
EC50 (A-375; resazurin; with: light 523 nm, 20 mW, 100 J/cm2): 15.6 µM

COc1ccccc1-c1ccncc1C(=O)Nc1nnc(OCc2ccc(Cl)cc2)s1
colony survival (MDA-MB-231 BRCA1 wild-type; 0.375 µM; baseline: vehicle control): 103% and 92.6%

CCN(C(=O)c1cc(F)ccc1Oc1nncnc1N1CCC2(C1)CN([C@H](CCCN(C)CCOC)C(C)C)C2)C(C)C
GI50 (NCI-H292; cell growth or viability; 7 days): > 10 µM

Cc1ncsc1-c1ccc(C(C)NC(=O)C2CC(O)CN2C(=O)C(NC(=O)CCCCCCCCCCN2CCCC(Nc3ncc(Cl)c(Nc4ccccc4S(=O)(=O)C(C)C)n3)C2)C(C)(C)C)cc1 (stereo not shown)
log2 fold change (22Rv1; RNA-seq, item: TMEM140 mRNA; concentration not given; baseline: DMSO): -1.55

[Cl-].[Cl-].[Ru+2].c1cc(-c2ccc3cccnc3n2)nc(-c2ccc3cccnc3n2)c1.c1ccc2cc3nc4c5cccnc5c5ncccc5c4nc3cc2c1
phototherapeutic index (A-375; visible light 100 J/cm2; baseline: dark EC50 over light EC50): 14

COC1CN([C@H]2CC[C@H]([C@@]3(C)Oc4c(Cl)cc(C(=O)NCc5c(SC)cc(C)[nH]c5=O)c(C)c4O3)CC2)C1
log2 fold change (RNA-seq, item: DAB2IP; human, whole blood; dose not given, 24 h; baseline: pretreatment baseline): 1.41

Oc1cccc(-c2cccc(O)n2)n1.[Cl-].[Cl-].[Ru+2].c1ccc(-c2ccnc3c2ccc2c(-c4ccccc4)ccnc23)cc1.c1ccc(-c2ccnc3c2ccc2c(-c4ccccc4)ccnc23)cc1
EC50 (MCF-10A; CCK-8 viability; white light 2 h): 0.03 µM

O=C1CC[C@H](N2Cc3cc(-c4ccn5ncc(Cl)c5n4)ccc3C2=O)C(=O)N1
log2 fold change (MOLM-13; mRNA level, RNA-seq, item: SLC7A5; 200 nM, 24 h; baseline: DMSO): -3.23

COC(=O)c1cc(NC2=NC(=O)C(=Cc3ccc(N(C)C)cc3)S2)ccc1OC(C)=O
metabolite level (MCF7; GC-MS, item: Dl-Phenylalanine; 1 µM; baseline: DMSO): -0.14 fold change

CNS(=O)(=O)Nc1nccc(Cc2c(C)c3ccc(Oc4ncccc4F)cc3oc2=O)c1F
IC50 (MCF-10A; cell viability; 7 days): 4.42 nM

CC(C)(C)c1cc(-c2ccc3cccnc3n2)nc(-c2ccc3cccnc3n2)c1.[Cl-].[Cl-].[Ru+2].c1ccc2cc3nc4c5cccnc5c5ncccc5c4nc3cc2c1
EC50 (A-375; cytotoxicity, resazurin; dark): 13.4 µM

CO[C@@H]1[C@@H](OC(N)=O)[C@@H](O)[C@H](Oc2ccc3c(O)c(NC(=O)c4ccc(O)c(CC=C(C)C)c4)c(=O)oc3c2C)OC1(C)C
colony count (DLD-1 BRCA2-/-; 100 µM, replicate 1): 0.1

C[n+]1ccc(/C=N/NC(=O)c2cc(C(=O)N/N=C/c3cc[n+](C)cc3)ncn2)cc1
ΔTm (MYC parallel G4 DNA; FRET melting; 1 µM, DNA 0.2 µM): 2.5 ± 1.7 °C

CN(C)CCN1CCN(c2ccc3nc(-c4ccc5nc(-c6ccc(C(F)(F)F)cc6)[nH]c5c4)[nH]c3c2)CC1
growth percent (RXF 393; SRB; 10 µM, 48 h): 50.3%

CCn1nc(Cl)c2c1-c1cnc(N)c(c1)O[C@H](C)c1cc(F)ccc1-c1nn(C)cc1C2
Emax (Ba/F3 EML4-ALK v3, no mutation; cell viability): 99.7%

Cc1cc(C)nc(SCC(=O)Nc2ncc(Cc3cccc4ccccc34)s2)n1
inhibition (PC-3M-luc; colony formation, colony forming; 10 µM): 13.8 ± 8.7%

O=C(N/N=C/c1cc[n+](CC2CC2)c2ccccc12)c1cncc(C(=O)N/N=C/c2cc[n+](CC3CC3)c3ccccc23)n1
ΔTm (MYC parallel G4 DNA; FRET melting; 1 µM, DNA 0.2 µM, with: duplex DNA competitor 10 µM): 11.4 ± 0.3 °C

O=C(CCCCCOc1ccc2ccccc2c1)N[C@@H](CO)C[C@@H](O)c1ccc(-c2ccccc2)cc1
sphingomyelin level (HeLa; CERT activity, HPLC-MS/MS lipidomics, item: sphingomyelin 16; 1 µM, 24 h, not cell-number normalised): 619000 pmol/sample and 667000 pmol/sample and 673000 pmol/sample

CCN(CC)CC(=O)Nc1cccc(-n2cc(-c3ccc4ccc(-c5cn(-c6cccc(NC(=O)CN(CC)CC)c6)nn5)cc4c3)nn2)c1
fold regulation (RCC4; PCR angiogenesis array, item: LECT1; 5 x IC50, 4 h, normoxia; baseline: untreated): 1.06

[Cl-].[Cl-].[Ru+2].c1ccc(-c2ccccn2)nc1.c1ccc(-c2ccccn2)nc1.c1ccc2cc3nc4c5cccnc5c5ncccc5c4nc3cc2c1
GI50 (SK-MEL-28; cell growth, SRB; red light 633 nm, 1% O2 hypoxia): 4.2 µM

Cc1ccc(-n2cc(CSc3nc4ccccc4n3Cc3cn(-c4ccc(C)cc4)nn3)nn2)cc1
cytotoxicity (HEK293; MTT; 7.81 ppm): 13.8%

CC(C)c1ccc(N(C)c2ccc3c(c2)OCC[C@H]3CNc2cnccc2C(=O)O)cc1
IC50 (T.T; cell growth, CellTiter-Glo; 7 days): 6.75 nM

CC(C)C[C@@H]1NC(=O)[C@H](CC(C)C)NC(=O)[C@H](Cc2c[nH]c3ccccc23)NC(=O)[C@H](CO)NC(=O)[C@H](Cc2c[nH]c3ccccc23)NC(=O)[C@@H]2CCCN2C(=O)[C@H](CC(C)C)NC(=O)[C@H](Cc2c[nH]cn2)NC(=O)[C@@H]2CCCN2C(=O)[C@H](CC(N)=O)NC(=O)[C@H](C)NC(=O)[C@H](Cc2ccc(O)cc2)NC(=O)[C@H](CS)NC(=O)[C@H](CCCCNC(=O)CN2CCN(CC(=O)O)CCN(CC(=O)O)CCN(CC(=O)O)CC2)NC1=O [lutetium-177 labelled]
live cells (4T1; flow cytometry; 0.4 Bq/cell, 24 h): 75.8%

Cn1ncc(-c2ccc3c(=O)[nH]nc(CN)c3c2)c1-c1c(F)c(Cl)cc(OC2CC2)c1C#N
IC50 (HCC1500; cell viability, CellTiter-Glo; 120 h): 60 nM

A few entries again:
CC(C)(C)c1cc(-c2ccc3cc4ccccc4nc3n2)nc(-c2ccc3cc4ccccc4nc3n2)c1.[Cl-].[Cl-].[Ru+2].c1ccc2cc3nc4c5cccnc5c5ncccc5c4nc3cc2c1
EC50 (A-375; resazurin; with: light 523 nm, 20 mW, 100 J/cm2): 15.6 µM

Cn1ncc(-c2ccc3c(=O)[nH]nc(CN)c3c2)c1-c1c(F)c(Cl)cc(OC2CC2)c1C#N
IC50 (HCC1500; cell viability, CellTiter-Glo; 120 h): 60 nM

COC(=O)c1cc(NC2=NC(=O)C(=Cc3ccc(N(C)C)cc3)S2)ccc1OC(C)=O
metabolite level (MCF7; GC-MS, item: Dl-Phenylalanine; 1 µM; baseline: DMSO): -0.14 fold change

COc1cccc(CNC[C@](O)(COCc2ccccc2)[C@@H]2CC[C@@H](C)C[C@H]2OCc2ccccc2)c1
inhibition (MDA-MB-231; cell growth or viability, MTT; 30 µM, 72 h): 95.1%
